Experimental data pooled from the literature.
Every numbered part comes from another study and shows a few of its results, in no order.
Chain of UniProt O14733 (whole entry, looked up): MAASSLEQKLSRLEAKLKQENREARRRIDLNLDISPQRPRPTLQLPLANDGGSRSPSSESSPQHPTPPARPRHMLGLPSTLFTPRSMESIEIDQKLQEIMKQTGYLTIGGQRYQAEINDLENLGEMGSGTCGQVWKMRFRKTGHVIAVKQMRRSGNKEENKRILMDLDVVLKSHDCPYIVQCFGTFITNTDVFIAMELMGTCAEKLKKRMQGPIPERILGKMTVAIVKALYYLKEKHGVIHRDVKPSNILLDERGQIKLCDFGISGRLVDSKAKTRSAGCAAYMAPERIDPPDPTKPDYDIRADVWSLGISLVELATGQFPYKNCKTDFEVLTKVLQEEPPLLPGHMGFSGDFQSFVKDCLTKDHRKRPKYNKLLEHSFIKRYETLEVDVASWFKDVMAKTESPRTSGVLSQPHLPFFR
Chain of UniProt Q8TD19 (whole entry, looked up): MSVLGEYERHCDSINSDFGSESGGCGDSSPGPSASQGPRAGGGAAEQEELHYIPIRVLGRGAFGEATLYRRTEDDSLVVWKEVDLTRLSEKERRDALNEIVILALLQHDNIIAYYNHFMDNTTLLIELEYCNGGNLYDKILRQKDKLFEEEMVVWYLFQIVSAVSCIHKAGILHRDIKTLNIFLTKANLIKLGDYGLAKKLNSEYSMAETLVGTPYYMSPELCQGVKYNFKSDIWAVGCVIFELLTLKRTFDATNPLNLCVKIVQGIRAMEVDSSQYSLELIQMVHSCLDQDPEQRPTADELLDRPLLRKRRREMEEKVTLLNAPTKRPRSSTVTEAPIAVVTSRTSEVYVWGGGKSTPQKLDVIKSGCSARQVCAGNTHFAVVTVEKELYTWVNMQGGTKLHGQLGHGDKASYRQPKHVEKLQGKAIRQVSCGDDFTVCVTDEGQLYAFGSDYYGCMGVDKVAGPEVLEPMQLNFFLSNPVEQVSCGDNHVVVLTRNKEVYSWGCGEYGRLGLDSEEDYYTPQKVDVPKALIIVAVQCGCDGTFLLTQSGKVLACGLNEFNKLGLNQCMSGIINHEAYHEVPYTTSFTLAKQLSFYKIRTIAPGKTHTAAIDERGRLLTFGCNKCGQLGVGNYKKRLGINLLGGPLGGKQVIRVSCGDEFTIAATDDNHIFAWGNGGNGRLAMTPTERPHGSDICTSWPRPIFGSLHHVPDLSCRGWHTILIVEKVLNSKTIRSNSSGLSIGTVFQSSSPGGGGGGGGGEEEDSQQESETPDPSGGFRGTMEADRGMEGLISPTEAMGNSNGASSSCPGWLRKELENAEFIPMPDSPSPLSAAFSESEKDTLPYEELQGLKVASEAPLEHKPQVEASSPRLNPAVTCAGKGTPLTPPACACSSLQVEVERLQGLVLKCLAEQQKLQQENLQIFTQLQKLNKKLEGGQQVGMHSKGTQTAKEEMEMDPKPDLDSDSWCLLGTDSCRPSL
Chain of UniProt P57058 (whole entry, looked up): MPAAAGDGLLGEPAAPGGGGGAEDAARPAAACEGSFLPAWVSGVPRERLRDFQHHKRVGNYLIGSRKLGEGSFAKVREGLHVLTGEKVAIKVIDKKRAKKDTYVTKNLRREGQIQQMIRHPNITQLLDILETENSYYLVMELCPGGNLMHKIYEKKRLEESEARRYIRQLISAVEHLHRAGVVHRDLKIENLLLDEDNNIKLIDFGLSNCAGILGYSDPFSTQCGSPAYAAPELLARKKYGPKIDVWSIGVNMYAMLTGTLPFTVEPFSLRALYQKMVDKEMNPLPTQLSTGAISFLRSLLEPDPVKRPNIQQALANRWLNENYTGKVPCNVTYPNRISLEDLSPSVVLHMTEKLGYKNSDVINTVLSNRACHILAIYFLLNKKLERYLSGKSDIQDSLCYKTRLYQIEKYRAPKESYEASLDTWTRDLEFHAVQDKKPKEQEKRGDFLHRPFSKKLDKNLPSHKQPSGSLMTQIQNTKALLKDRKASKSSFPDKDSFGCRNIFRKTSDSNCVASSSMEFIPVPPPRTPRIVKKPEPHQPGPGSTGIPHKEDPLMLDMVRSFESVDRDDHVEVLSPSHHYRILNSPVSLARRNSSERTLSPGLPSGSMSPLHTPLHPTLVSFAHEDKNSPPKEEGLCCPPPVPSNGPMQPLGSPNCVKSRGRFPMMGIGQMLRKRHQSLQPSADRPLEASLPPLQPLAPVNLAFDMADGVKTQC
Chain of UniProt Q15139 (whole entry, looked up): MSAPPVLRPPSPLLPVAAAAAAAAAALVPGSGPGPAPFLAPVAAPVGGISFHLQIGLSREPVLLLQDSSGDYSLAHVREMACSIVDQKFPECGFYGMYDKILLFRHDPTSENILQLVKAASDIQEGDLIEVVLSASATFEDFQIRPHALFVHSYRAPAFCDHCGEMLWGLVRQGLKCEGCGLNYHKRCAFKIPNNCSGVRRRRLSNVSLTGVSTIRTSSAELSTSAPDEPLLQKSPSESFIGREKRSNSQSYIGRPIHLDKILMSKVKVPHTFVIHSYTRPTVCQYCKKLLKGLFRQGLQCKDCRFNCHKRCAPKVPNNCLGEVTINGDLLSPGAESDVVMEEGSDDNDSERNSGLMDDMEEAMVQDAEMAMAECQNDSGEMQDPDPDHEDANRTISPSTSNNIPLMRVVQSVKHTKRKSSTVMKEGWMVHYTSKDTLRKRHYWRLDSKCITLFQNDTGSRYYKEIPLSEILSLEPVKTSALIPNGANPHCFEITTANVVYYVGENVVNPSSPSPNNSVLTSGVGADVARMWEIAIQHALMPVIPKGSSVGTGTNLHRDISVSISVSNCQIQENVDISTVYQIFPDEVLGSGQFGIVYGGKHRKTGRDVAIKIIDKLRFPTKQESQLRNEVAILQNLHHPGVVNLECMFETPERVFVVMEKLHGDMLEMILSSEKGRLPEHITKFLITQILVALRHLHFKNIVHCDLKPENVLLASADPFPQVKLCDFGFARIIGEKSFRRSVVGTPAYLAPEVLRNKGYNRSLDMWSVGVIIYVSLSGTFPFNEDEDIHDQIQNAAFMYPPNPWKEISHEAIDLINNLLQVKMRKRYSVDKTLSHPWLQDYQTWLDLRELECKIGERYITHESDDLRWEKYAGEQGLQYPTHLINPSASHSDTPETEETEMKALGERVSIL

Series 1
Structure (SMILES): Cc1ccc(O)c(C)c1-c1cnc2[nH]c(-c3cnc(N4CCC(CCN5CCN(c6ccc(NC7CCC(=O)NC7=O)cc6F)CC5)CC4)nc3)cc2c1C#N (stereo not drawn)
Target: Membrane-associated tyrosine- and threonine-specific cdc2-inhibitory kinase (PKMYT1, Homo sapiens, UniProt Q99640)
Chain of UniProt Q99640 (whole entry, looked up): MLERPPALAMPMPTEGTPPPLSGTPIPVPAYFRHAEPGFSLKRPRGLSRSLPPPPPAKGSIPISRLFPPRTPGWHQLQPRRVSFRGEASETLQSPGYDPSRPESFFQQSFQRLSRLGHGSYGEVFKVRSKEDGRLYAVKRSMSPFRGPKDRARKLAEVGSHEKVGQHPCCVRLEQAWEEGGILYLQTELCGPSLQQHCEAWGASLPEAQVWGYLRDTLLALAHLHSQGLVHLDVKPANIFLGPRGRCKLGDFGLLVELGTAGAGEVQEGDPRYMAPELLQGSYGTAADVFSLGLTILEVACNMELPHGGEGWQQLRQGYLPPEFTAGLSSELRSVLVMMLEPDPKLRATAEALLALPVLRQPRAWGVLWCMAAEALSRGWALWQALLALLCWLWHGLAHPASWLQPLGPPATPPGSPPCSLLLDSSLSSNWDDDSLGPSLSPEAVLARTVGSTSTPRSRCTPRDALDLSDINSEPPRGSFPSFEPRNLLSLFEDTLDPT
| effect on | action | technique | concentration | inhibition |
| --- | --- | --- | --- | --- |
|  |  |  | 5.1e-05 µM | -6.97% |
|  |  |  | 0.00412 µM | 56.9% |
|  |  |  | 0.03704 µM | 96.6% |
|  |  |  | 1 µM | 99.4% |
| cell-free assay | inhibitor | TR-FRET | 152 pM | -4.42% |
| cell-free assay | inhibitor | TR-FRET | 12.35 nM | 89.2% |
| cell-free assay | inhibitor | TR-FRET | 51 pM | -5.08% |
|  |  |  | 0.00046 µM | 2.42% |
| cell-free assay | inhibitor | TR-FRET | 1.37 nM | 16.5% |
|  |  |  | 0.00137 µM | 17.6% |

Series 2 — Structure (SMILES): O=C(Nc1ccccc1)Nc1cccc(Oc2ccc3nccn3n2)c1; concentration: 1 µM
| target | effect on | technique | remaining binding |
| --- | --- | --- | --- |
| HUNK (Homo sapiens, UniProt P57058) | binding |  | 82% |
| MARK2 (Homo sapiens, UniProt Q7KZI7) | binding |  | 61% |
| LTK (Homo sapiens, UniProt P29376) | binding |  | 100% |
| BRSK1 (Homo sapiens, UniProt Q8TDC3) | binding |  | 100% |
| PRKACB (Homo sapiens, UniProt P22694) |  | cell-free binding | 30% |
| ALK (Homo sapiens, UniProt Q9UM73) | binding |  | 83% |
| PIK3CG (Homo sapiens, UniProt P48736) | binding |  | 94% |
| COQ8B (Homo sapiens, UniProt Q96D53) | binding |  | 82% |
| GSK3B (Homo sapiens, UniProt P49841) | binding |  | 100% |
| MAP3K4 (Homo sapiens, UniProt Q9Y6R4) |  | cell-free binding | 96% |
| MAP3K20 (Homo sapiens, UniProt Q9NYL2) | binding | competition with immobilised ligand | 65% |
| PIK3CA (Homo sapiens, UniProt P42336, E545K) | binding |  | 99% |
| NEK9 (Homo sapiens, UniProt Q8TD19) | binding |  | 64% |
| IGF1R (Homo sapiens, UniProt P08069) | binding |  | 100% |
| BMPR1A (Homo sapiens, UniProt P36894) | binding | competition with immobilised ligand | 100% |
| EPHA5 (Homo sapiens, UniProt P54756) | binding | competition with immobilised ligand | 100% |
| MAP2K7 (Homo sapiens, UniProt O14733) | binding |  | 100% |
| Ribosomal protein S6 kinase alpha-1, C-terminal kinase domain (RPS6KA1, Homo sapiens, UniProt Q15418) | binding | competition with immobilised ligand | 100% |
| SRPK1 (Homo sapiens, UniProt Q96SB4) | binding |  | 100% |
| EPHB6 (Homo sapiens, UniProt O15197) | binding | competition with immobilised ligand | 91% |
| PRKD1 (Homo sapiens, UniProt Q15139) | binding |  | 100% |

Series 3 — effect on: thermal unfolding; technique: differential scanning fluorimetry; concentration: 5.5 µM; reading: higher = more unfolded
Structure (SMILES): C[C@@H]1CN(c2ccc(-c3cc(C(=O)NCCOCCOCCOCCOCCNC(=O)/C=C/c4[nH]cc(C(=O)N[C@@H](CC(N)=O)c5ccc(F)c(Cl)c5)c4-c4ccc(Cl)cc4F)ccc3F)cc2NC(=O)c2c[nH]c(=O)cc2C(F)(F)F)C[C@H](C)N1C
WDR5: WD repeat-containing protein 5 (WDR5, Homo sapiens, UniProt P61964)
DCAF1: DDB1- and CUL4-associated factor 1 (DCAF1, Homo sapiens, UniProt Q9Y4B6)
Chain of UniProt Q9Y4B6 (whole entry, looked up): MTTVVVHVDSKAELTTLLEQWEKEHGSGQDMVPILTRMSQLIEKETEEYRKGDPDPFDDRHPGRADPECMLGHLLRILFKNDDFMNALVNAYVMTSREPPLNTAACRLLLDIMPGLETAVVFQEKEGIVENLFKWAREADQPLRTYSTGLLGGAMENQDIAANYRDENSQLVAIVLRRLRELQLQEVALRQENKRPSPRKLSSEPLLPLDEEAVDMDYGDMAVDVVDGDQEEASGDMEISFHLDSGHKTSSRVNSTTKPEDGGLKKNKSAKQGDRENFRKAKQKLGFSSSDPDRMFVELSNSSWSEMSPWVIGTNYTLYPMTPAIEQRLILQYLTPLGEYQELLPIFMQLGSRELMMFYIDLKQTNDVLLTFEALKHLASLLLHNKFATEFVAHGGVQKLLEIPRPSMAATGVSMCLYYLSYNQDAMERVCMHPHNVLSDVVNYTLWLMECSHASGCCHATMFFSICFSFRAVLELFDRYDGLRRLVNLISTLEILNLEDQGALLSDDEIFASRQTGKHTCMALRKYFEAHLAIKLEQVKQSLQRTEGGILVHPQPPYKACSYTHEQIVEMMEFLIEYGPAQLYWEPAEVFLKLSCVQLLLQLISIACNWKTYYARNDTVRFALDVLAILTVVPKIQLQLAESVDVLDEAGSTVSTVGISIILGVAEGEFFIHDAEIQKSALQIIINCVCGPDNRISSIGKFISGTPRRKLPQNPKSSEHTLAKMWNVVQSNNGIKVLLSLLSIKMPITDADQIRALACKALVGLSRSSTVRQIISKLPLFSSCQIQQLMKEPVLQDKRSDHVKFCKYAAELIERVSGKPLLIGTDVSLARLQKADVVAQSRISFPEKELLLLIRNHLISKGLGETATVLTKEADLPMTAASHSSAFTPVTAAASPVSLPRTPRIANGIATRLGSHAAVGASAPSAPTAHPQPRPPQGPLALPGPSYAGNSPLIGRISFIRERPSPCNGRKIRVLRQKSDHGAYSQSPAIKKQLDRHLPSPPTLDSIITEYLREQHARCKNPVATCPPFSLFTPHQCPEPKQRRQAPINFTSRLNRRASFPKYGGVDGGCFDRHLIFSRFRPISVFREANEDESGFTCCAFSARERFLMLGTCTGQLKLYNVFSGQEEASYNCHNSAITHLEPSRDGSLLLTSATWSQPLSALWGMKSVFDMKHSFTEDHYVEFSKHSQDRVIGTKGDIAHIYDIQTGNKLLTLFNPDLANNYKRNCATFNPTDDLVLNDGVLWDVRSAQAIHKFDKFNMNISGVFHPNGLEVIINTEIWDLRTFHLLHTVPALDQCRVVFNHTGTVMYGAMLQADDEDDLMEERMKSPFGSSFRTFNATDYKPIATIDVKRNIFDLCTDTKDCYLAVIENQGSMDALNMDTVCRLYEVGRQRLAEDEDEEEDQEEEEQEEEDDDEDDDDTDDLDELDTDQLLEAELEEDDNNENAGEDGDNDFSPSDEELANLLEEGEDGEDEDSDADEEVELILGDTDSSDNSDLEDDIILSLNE
| target | temperature | SYPRO Orange fluorescence |
| --- | --- | --- |
| WDR5 | 75.21 °C | 26300 a.u. |
| DCAF1 | 83.21 °C | 42100 a.u. |
| DCAF1 | 46.2 °C | 13500 a.u. |
| DCAF1 | 71.81 °C | 53500 a.u. |
| WDR5 | 64.41 °C | 14000 a.u. |
| DCAF1 | 80.01 °C | 45200 a.u. |
| WDR5 | 63.81 °C | 14000 a.u. |
| DCAF1 | 54.81 °C | 21100 a.u. |
| WDR5 | 55.41 °C | 16800 a.u. |
| WDR5 | 33.4 °C | 13000 a.u. |
| WDR5 | 25.8 °C | 12900 a.u. |

Series 4 — effect on: kinase activity
Structure (SMILES): CN(C1COC1)C(C)(C)/C=C(\C#N)C(=O)N1CCC[C@H]1Cn1nc(-c2ccc(Oc3ccccc3)cc2F)c2c(N)ncnc21
| target | concentration | inhibition [%] |
| --- | --- | --- |
| IKBKE (Homo sapiens, UniProt Q14164) | 0.1 µM | -9 |
| CHEK1 (Homo sapiens, UniProt O14757) | 0.1 µM | 0 |
| PAK6 (Homo sapiens, UniProt Q9NQU5) | 0.1 µM | 6 |
| ITK (Homo sapiens, UniProt Q08881) | 1 µM | 5 |
| PTK2 (Homo sapiens, UniProt Q05397) | 1 µM | 4 |
| PRKAA2 (Homo sapiens, UniProt P54646) | 1 µM | -7 |
| CAMK2G (Homo sapiens, UniProt Q13555) | 1 µM | 0 |
| JAK3 (Homo sapiens, UniProt P52333) | 1 µM | 0 |
| PRKCH (Homo sapiens, UniProt P24723) | 1 µM | -1 |
| GSK3A (Homo sapiens, UniProt P49840) | 0.1 µM | -1 |
| JAK2 (Homo sapiens, UniProt O60674) | 0.1 µM | -6 |
| SIK1 (Homo sapiens, UniProt P57059) | 1 µM | 0 |
| RPS6KA3 (Homo sapiens, UniProt P51812) | 0.1 µM | -1 |
| RET (Homo sapiens, UniProt P07949) | 1 µM | 42 |
| HIPK1 (Homo sapiens, UniProt Q86Z02) | 0.1 µM | 2 |
| Mitogen-activated protein kinase kinase kinase 7, with TAB1 (MAP3K7, Homo sapiens, UniProt O43318) | 0.1 µM | 5 |
| PKN1 (Homo sapiens, UniProt Q16512) | 0.1 µM | 3 |
| NEK7 (Homo sapiens, UniProt Q8TDX7) | 1 µM | -7 |
| MKNK1 (Homo sapiens, UniProt Q9BUB5) | 0.1 µM | 4 |
| STK3 (Homo sapiens, UniProt Q13188) | 0.1 µM | 3 |
| TEC (Homo sapiens, UniProt P42680) | 0.1 µM | 89 |

Repeated from above (series 2):
| target | effect on | technique | remaining binding |
| --- | --- | --- | --- |
| GSK3B (Homo sapiens, UniProt P49841) | binding |  | 100% |
| LTK (Homo sapiens, UniProt P29376) | binding |  | 100% |
| BRSK1 (Homo sapiens, UniProt Q8TDC3) | binding |  | 100% |
| BMPR1A (Homo sapiens, UniProt P36894) | binding | competition with immobilised ligand | 100% |
| EPHB6 (Homo sapiens, UniProt O15197) | binding | competition with immobilised ligand | 91% |
| MAP2K7 (Homo sapiens, UniProt O14733) | binding |  | 100% |
